Measurements of several laboratories.
Numbers after ± are the reported error.

The blood glucose of `CSCC[C@H](NC(=O)[C@H](CO)NC(=O)[C@@H](N)CO)C(=O)N[C@@H](CCCCN)C(=O)N[C@@H](CC(C)C)C(=O)N[C@@H](CO)C(=O)N[C@@H](Cc1ccccc1)C(=O)N[C@@H](CCCNC(=N)N)C(=O)N[C@@H](C)C(=O)N[C@@H](CCCNC(=N)N)C(=O)N[C@@H](C)C(=O)N[C@@H](Cc1ccc(O)cc1)C(=O)NCC(=O)N[C@@H](Cc1ccccc1)C(=O)N[C@@H](CCCNC(=N)N)C(=O)NCC(=O)N1CCC[C@H]1C(=O)NCC(=O)N1CCC[C@H]1C(=O)N[C@@H](CCC(N)=O)C(=O)N[C@@H](CC(C)C)C(=O)O` is reported as 121 ± 9.63 mg/dL (insulin tolerance test; DIO mouse; dose not given, 0 min, chronic treatment).
For `CCOP(=O)(CC(=O)Nc1ccc(S(=O)(=O)N(CC(N)=O)c2ccc(N(CC(N)=O)S(=O)(=O)c3ccc(OC)cc3)c3ccccc23)cc1)OCC`, “NQO1 protein level” read “increased” (Western blot; APP/PS1 mice, hippocampus and frontal cortex; 40 mg/kg; baseline: untreated APP/PS1 mice).
For `CCCCC1NC(=O)c2ccccc21` (racemic), GSH-Px activity read “increased” (Sprague Dawley rat cerebral ischaemia-reperfusion, ischaemic core; 50 mg/kg; baseline: model group).
For `Cc1cc(O)c(C=O)c2c1C(=O)Oc1c(CO)c(O)c3c(c1O2)C(O)OC3=O` (stereo not drawn), the Mount latency was 480 ± 35.2 s (copulatory behaviour test; rat, male, streptozotocin-induced diabetes; 10 mg/kg, day 63).
The blood glucose of `COc1ccc(C2CC(c3ccc(C)cc3)=Nc3ccccc3S2)cc1OC` (stereo not drawn) is reported as 376 ± 4.23 mg/dL (Wistar rat, STZ-induced diabetes; oral, 10 mg/kg once daily, day 1).
The ALT activity of `CC[C@H]1[C@@H](O)[C@@H]2[C@H](CC[C@]3(C)[C@@H]([C@H](C)CCOS(=O)(=O)[O-])CC[C@@H]23)[C@@]2(C)CC[C@@H](O)C[C@@H]12.[Na+]` is reported as 498 ± 27.3 U/L (ob/ob NASH mouse model, plasma; oral, 10 mg/kg once daily, before treatment, baseline of 8 week study).
`CC=C1C(OC2OC(CO)C(O)C(O)C2O)OC=C(C(=O)OC)C1CC(=O)OCC1OC(OCCc2ccc(O)cc2)C(O)C(O)C1O` (stereo not drawn) — result for “faecal short-chain fatty acid increase”: 30.8% (refers to: propionic acid; tumour-bearing mice, faeces; oral, 109.2 mg/kg daily, 10 days; baseline: untreated tumour group).
For `CCCCCCCCCCCCCCCC(=O)NCCCC[C@H](N)C(=O)N[C@@H](CC(=O)O)C(=O)N[C@H](C(=O)N[C@@H](Cc1c[nH]cn1)C(=O)N[C@@H](Cc1ccccc1)C(=O)N[C@@H](CCCNC(=N)N)C(=O)N[C@H](C(=O)N[C@@H](Cc1ccccc1)C(=O)N[C@@H](CCCNC(=N)N)C(=O)N[C@@H](CO)C(=O)N[C@@H](Cc1c[nH]cn1)C(=O)N[C@@H](CO)C(=O)N[C@@H](CC(=O)O)C(=O)N[C@@H](Cc1ccc(O)cc1)C(=O)N[C@@H](CCCNC(=N)N)C(=O)N[C@@H](CCCNC(=N)N)C(=O)N[C@H](C(=O)O)[C@@H](C)CC)[C@@H](C)O)[C@@H](C)O`, the blood glucose was 94.7 ± 5.8 mg/dL (C57BL/6J mouse, MCD diet; intraperitoneal, 1.2 nmol/g, 3 weeks, 3 times weekly).
`CC(C)OC(=O)[C@H](CO)NCc1cc(Cl)c(OCc2cccc(-c3ccccc3)c2Br)cc1OCc1cccnc1` — result for “tumour weight inhibition”: 60.9% (hPD-L1 MC-38 tumour, humanised hPD-1 C57BL/6 mouse; oral, 5 mg/kg × 21).

Excerpt of the above:
The blood glucose of `COc1ccc(C2CC(c3ccc(C)cc3)=Nc3ccccc3S2)cc1OC` (stereo not drawn) is reported as 376 ± 4.23 mg/dL (Wistar rat, STZ-induced diabetes; oral, 10 mg/kg once daily, day 1).
